Measured values pooled from the literature.
Compare with care: the assays were run in different laboratories.

Cc1ccc(CNC(=O)c2cc(/C=C/C(=O)O)cc(-c3ccc4ncnn4c3)c2)cc1  stability (simulated intestinal fluid; 2 h): stable
C1=C/COCc2cc(ccc2OCCN2CCCC2)Nc2nccc(n2)-c2cccc(c2)COC/1  stability relative error (rat plasma; 1200 ng/mL, 24 h, 4 °C; relative to: nominal concentration): -1.64%
C=CC(=O)N1CCC[C@@H](n2nc(-c3ccc(Oc4ccccc4)cc3)c3c(N)ncnc32)C1  stability constant (phase solubility; 72 h, room temperature, together with: hydroxypropyl-beta-cyclodextrin): 217 M⁻¹
CCN(CC)Cc1ccc2cc(COC(=O)Nc3ccc(C(=O)NO)cc3)ccc2c1  stability relative error (rat plasma; 3200 ng/mL, 3 h, room temperature; relative to: nominal concentration): 105%
CCC[C@H](N[C@@H](C)C(=O)N1[C@H](C(=O)O)C[C@@H]2CCCC[C@@H]21)C(=O)O  stability (human whole blood; 16.0 ng/mL, 30 h, 8 °C, autosampler, high QC): 90.5%
O=C(N/N=C/c1ccccc1O)c1ccncc1  stability (rat plasma; 23 µM, 12 h, 5 °C, post-preparative): 97.6%
Cc1c2c(c(O)c3c(OC(=O)c4ccccn4)cccc13)C(=O)[C@]1(O)C(=O)C(C(N)=O)=C(O)[C@@H](N(C)C)[C@@H]1C2  stability time (LC-MS; Escherichia coli cell lysate): ≥ 16 h
O=C(NCCN1CCCC1)c1cc(-c2ccc(CN3CCOCC3)cc2)nc2ccc(F)cc12  stability duration (human whole blood; ambient): 1 h
C[C@@H](Oc1ccc(S(C)(=O)=O)cc1C(=O)N1C[C@@H]2C[C@]2(c2cc(C(F)(F)F)on2)C1)C(F)(F)F  stability period (human K2-EDTA plasma; 20 °C): 953 days

Repeated from above:
C=CC(=O)N1CCC[C@@H](n2nc(-c3ccc(Oc4ccccc4)cc3)c3c(N)ncnc32)C1  stability constant (phase solubility; 72 h, room temperature, together with: hydroxypropyl-beta-cyclodextrin): 217 M⁻¹
